Measurements of several laboratories.
Several values in a cell are separate wells, animals, samples, runs or records.
Target: Myotonin-protein kinase (DMPK, Homo sapiens, UniProt Q09013)

`COCC12C(=O)NC3C4(C(OC)CC1O)C1CC5(O)C(OC)C(O)C(OC(C)=O)(C1C5OC(=O)c1ccccc1)C3(O)C(OC)C24` (centres unmarked) has a remaining activity of 112% and 106% (kinase activity, inhibitor, ProQinase kinase profiling; 25 µM; relative to: control).
With `COc1ccc(NC(=O)Nc2ccc3c(c2)C(=O)N(C(C)CO)CC(C)C(CN(C)Cc2ccc4c(c2)OCO4)O3)cc1` (centres unmarked) the remaining activity was 111% (kinase activity, KinaseProfiler; 0.03 µM, species human; relative to: control).
For `CC(C)=CC1OC(C)(C)C2C=C3C(=O)C(Cl)=CC(O)C3C3C(O)C4OC4C(=O)C132` (centres unmarked), the remaining binding was 90% (cell-free assay, competition with immobilised ligand; 10 µM).
`Cc1nc2c(F)cc(-c3nc(Nc4ccc(CNC(=O)CCCCCCC(=O)NO)cc4)ncc3F)cc2n1C(C)C` has an inhibition of 23% (enzyme activity, inhibitor; 1 µM).
The inhibition of `CN1CCN(Cc2ccc(-c3ccc(CO[C@H]4CCC[C@@H]4NC(=O)c4cc(-c5cnn(C)c5)cnc4N)cc3)cc2)CC1` is reported as 6% (enzyme activity, inhibitor; 0.1 µM).
The remaining binding of `C=CC(=O)N1CCc2ccc(-n3c(=O)ccc4cnc5ccc(-c6cnn(C)c6)cc5c43)cc21` is reported as 95% (KINOMEscan; 1 µM; relative to: DMSO control).
For `COc1ccc(C(=O)/C=C/c2ccccc2-c2c[nH]c3ccc(C#N)cc23)c(O)c1`, the inhibition was -10% (enzyme activity, inhibitor; 20 µM).
For `CNC1C[S+]2CC[S+]3CC[S+](C1)[Ru-4]321([N]=C=S)[n]2c3ccc(OC)cc3c3c4c(c5cc(F)c[n+]1c5c32)C(=O)NC4=O` (centres unmarked), the remaining binding was 99% (KinomeScan; 0.1 µM; relative to: untreated).
`COc1c(Cl)cccc1Nc1c(-c2ccncc2C#C[C@@]2(C)CCCN2C(=O)/C=C/CN(C)C)[nH]c2c1C(=O)NCC2` has a remaining binding of 98% (binding, competition with immobilised ligand; 3 µM).
The remaining binding of `Cc1ccc(-c2c(/C=C(\C#N)C(=O)NC(C)C)n(CCCO)c3ncnc(N)c23)cc1` is reported as 100% (cell-free assay, competition with immobilised ligand; 1 µM).
For `NC(=O)C[C@H]1CCc2sc3ncnc(O[C@H]4CC[C@H](N5CCOCC5)CC4)c3c21`, the inhibition was 2% (enzyme activity, inhibitor; 10 µM).
`COc1cc(Nc2nccc(-c3cnn4nc(OC)ccc34)n2)cc(C(F)(F)F)c1` has a remaining binding of 100% (binding, competition with immobilised ligand; 1 µM).
The remaining binding of `CCN1CCN(Cc2ccc(C(=O)Nc3ccc(C)c(NCc4cnc5[nH]ccc5c4OC)c3)cc2C(F)(F)F)CC1` is reported as 96% (binding, competition with immobilised ligand; 1 µM).
`CN1CC[C@@H](COc2cnc(C#N)cc2-c2ccn3nc(NC(=O)C4CC4)cc3c2)C1` gave an inhibition of 0% (inhibitor, KinaseProfiler panel; 1 µM).

Some of these lines once more:
The remaining binding of `C=CC(=O)N1CCc2ccc(-n3c(=O)ccc4cnc5ccc(-c6cnn(C)c6)cc5c43)cc21` is reported as 95% (KINOMEscan; 1 µM; relative to: DMSO control).
For `COc1ccc(C(=O)/C=C/c2ccccc2-c2c[nH]c3ccc(C#N)cc23)c(O)c1`, the inhibition was -10% (enzyme activity, inhibitor; 20 µM).
